Measured values of several laboratories.
Each numbered part is a random draw from the data of one study; scales do not carry over between parts. Positions count from the first letter of the parent shown.

Sample 1 — method: protein binding microarray; form: double-stranded DNA, one strand shown; medium: in vitro; tested at: not given; reference: not given; reading: higher = stronger binding
Target: Histone acetyltransferase KAT6A, both winged helices, GST fusion (KAT6A, Homo sapiens, UniProt Q92794, residues 1-181)
Setting: 8-mer, flanks averaged, mean of 2 arrays, mostly near background
Target sequence (chain): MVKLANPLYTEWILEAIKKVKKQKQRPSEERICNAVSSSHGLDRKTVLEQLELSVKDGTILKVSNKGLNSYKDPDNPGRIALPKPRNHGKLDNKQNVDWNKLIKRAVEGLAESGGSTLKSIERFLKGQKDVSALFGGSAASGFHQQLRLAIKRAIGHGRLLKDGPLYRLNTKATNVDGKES
Oligonucleotide | E-score
ATGCGCAC | 0.269
CCTGTCAA | -0.0943
AATCTTAG | -0.155
CGCCCCAG | -0.0606
CAACACAA | -0.21
ATACAAAT | 0.0274
CTACAAAA | -0.0685
CTTGACGA | -0.0943
GAAACGAA | -0.0843
ACGCAAAA | 0.175
AACTTTGT | 0.052
AGTGGAAT | -0.0406
AAAGCTTC | 0.0479

Sample 2 — observed: peptide binding; form: peptide; medium: yeast competitive growth; together with: B2-Cln2 chimera; reading: direction not given
Molecule | enrichment score
KRCATPVIIDEILPSK | 0.0479
EPRNLLSLFEDTLDPT | 1.93
GPVKLEFDVSDGAT | 0.0214
YLYLLLTQSLWCRV | -1.01
AKRSLGFLPQPVPL | -0.77
RQVRRDLFAF | -1.39
GTPKRCLDLSNLSSGE | -0.0931
PHKTFRKLRLFDTPHT | -0.298
SPPRGRRLFPPGPAGF | -0.324

Sample 3 — method: DHFR PCA, deep sequencing; medium: yeast; together with: (+)-ABA 0.032 µM; reference: wild-type fitted maximum; reading: higher = stronger binding
Target: ABI1, truncated, D143A, DHFR fusion (Arabidopsis thaliana)
Setting: methotrexate growth selection, single substitutions
Starting sequence: PYL1, truncated, DHFR fusion (Arabidopsis thaliana); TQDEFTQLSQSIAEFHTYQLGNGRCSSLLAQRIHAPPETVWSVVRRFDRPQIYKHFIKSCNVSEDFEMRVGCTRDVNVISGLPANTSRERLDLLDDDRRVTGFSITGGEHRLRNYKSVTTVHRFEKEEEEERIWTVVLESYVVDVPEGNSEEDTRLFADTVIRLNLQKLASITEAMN; partner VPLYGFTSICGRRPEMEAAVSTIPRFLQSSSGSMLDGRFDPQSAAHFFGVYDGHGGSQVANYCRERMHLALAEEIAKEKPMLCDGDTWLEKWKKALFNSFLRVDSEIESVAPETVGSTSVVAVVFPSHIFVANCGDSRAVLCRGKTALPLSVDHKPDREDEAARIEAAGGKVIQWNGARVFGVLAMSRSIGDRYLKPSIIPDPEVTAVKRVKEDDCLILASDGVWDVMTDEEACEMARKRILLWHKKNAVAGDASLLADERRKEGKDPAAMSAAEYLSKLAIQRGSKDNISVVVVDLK
Change | relative binding score [%]
L112S | -0.38
G102E | -2.83
F56G | 2.19
L169D | 0.616
F56V | -1.36
I57A | 0.364
E4F | 8.83
A13H | 16.2
A30T | 11.3
D153R | -0.435
I172E | -6.43
G148P | 2.71
E152R | 0.835
G23S | 16.7
C72M | 24.8

Other studies, line by line
Substance | target | test | system | setting | how to read | measurement | result
PhoQ, residues 284 288 289 292 302 303 TYGVAM | PhoP, residues 12 14 15 18 19 LHHSG (Escherichia coli, UniProt P23836) | Sort-seq, refers to: YFP reporter | E. coli | PhoQ-PhoP variant library, together with: 10 µM Mg2+ | reference: high Mg2+ state, higher = stronger signaling | fold induction | 11.4

A few entries again (sample 2):
Molecule | enrichment score
SPPRGRRLFPPGPAGF | -0.324
PHKTFRKLRLFDTPHT | -0.298
GPVKLEFDVSDGAT | 0.0214
